Assay results collected from several papers.
Compare with care: the assays were run in different laboratories. Several values in a cell are separate wells, animals, samples, runs or records. ± marks the error that the study gave.

Structure (SMILES) | assay | system | setting | how to read | quantity | result
O=C(O)CCCOc1ccc(F)cc1-c1cc(-c2ccccc2C(F)(F)F)n(-c2ccccc2)n1 | – | female Crl:CD(SD) rats, spleen | intravenous, 25 µg/kg, 1 d | – | organ weight | 0.46 ± 0.06 g
CC(C)Nc1ccnc(Nc2cccc(-c3cccnc3)c2)n1 | refers to: potassium | mouse, blood | intraperitoneal, 5 mg/kg | – | blood chemistry | 9.69 mmol/L
COc1cc2c(Oc3ccc4[nH]c(C)cc4c3F)ccnc2cc1OCC1(N)CC1 | – | paediatric recurrent refractory sarcoma | concentration not given, whole group | – | grade 1 or 2 Rash | 14.7%
O=C1Nc2cc3[nH]nc(-c4ccncc4)c3cc2CN1Cc1ccccc1 | refers to: Constipation | patients with advanced solid tumours | intravenous, dose not given, all schedules | – | patients with TEAE | 12%
O=S(=O)(Nc1ccccc1)c1ccc(NC(=S)Nc2ccccc2)cc1 | refers to: CREA | male mouse, blood | oral, 80 mg/kg daily, 14 days | – | blood chemistry level | 0.2 mg/dL
COc1ncnn2ccc(-c3cnc4nc(C)n(Cc5nnc([C@@H](C)F)o5)c4c3)c12 | – | human patients | oral, dose not given | – | incidence of grade 1 creatinine increased | 7.1%
O=[N+]([O-])c1ccc2c(c1)S(=O)(=O)C=C2 | – | male C57BL/6 mice, blood | intraperitoneal, 10 mg/kg, day 8, group average | – | red cell distribution width CV | 0.15%
C[C@]12CC[C@H](n3ccnc3)CC1=CC[C@@H]1[C@@H]2CC[C@]2(C)C(n3cnc4ccccc43)=CC[C@@H]12.Cl.Cl | – | CD-1 mouse, male, plasma | intravenous, 1 mg/kg | – | t_half | ~180 min
CC(C)C[C@H](NC(=O)[C@H](CCC(N)=O)NC(=O)[C@H](C)NC(=O)[C@H](C)NC(=O)[C@H](CCCNC(=N)N)NC(=O)[C@H](CCCNC(=N)N)NC(=O)[C@H](CCCNC(=N)N)NC(=O)[C@H](CC(C)C)NC(=O)[C@H](Cc1c[nH]cn1)NC(=O)[C@@H](NC(=O)[C@H](CCCCN)NC(=O)[C@H](CCCNC(=N)N)NC(=O)[C@H](CCCNC(=N)N)NC(=O)[C@H](CCCNC(=N)N)NC(=O)[C@H](CCC(N)=O)NC(=O)[C@H](CCCNC(=N)N)NC(=O)[C@H](CCCNC(=N)N)NC(=O)[C@H](CCCCN)NC(=O)[C@H](CCCCN)NC(=O)[C@H](CCCNC(=N)N)NC(=O)CNC(=O)[C@@H](N)Cc1ccc(O)cc1)[C@@H](C)O)C(=O)N[C@@H](CCCCN)C(N)=O | open field test | rat | intra-CA1 bilateral, dose not given, 5 min | – | centre time | no effect
CCC[C@@](N)(CO)CCc1ccc(OCCCCCC(C)C)cc1 | – | hound dogs, male | oral, 20 mg/kg, capsule, fed state, median | – | half-life | 912 min
Nc1ccc2cc3ccc(N)cc3nc2c1 | – | male CD-1 mouse, lungs | oral, 100 mg/kg | – | AUC(0-t) | 18800 ng·h/mL
Clc1cc(Cl)c(-c2cc(Cl)ccc2Cl)c(Cl)c1 | – | fresh water | 20 °C, S30-1 sampler, 30 µm | – | log K(PDMS-water) | 6.03 ± 0.04
CC[C@H](C)[C@H](NC(=O)[C@H](Cc1ccc(O)cc1)NC(=O)[C@@H]1CCCN1C(=O)[C@H](CCCNC(=N)N)NC(=O)[C@@H](N)CCCNC(=N)NC(=O)NCCOCCOCCNC(=O)CCCCCN1\C(=C/C=C/C=C/C2=[N+](CCCCS(=O)(=O)[O-])c3ccccc3C2(C)C)C(C)(C)c2ccccc21)C(=O)N[C@@H](CC(C)C)C(=O)O | – | PBS | pH 7.4 | baseline: cresyl violet perchlorate | fluorescence quantum yield | 28%
Cc1cccc(Cn2nc(C3CC3)c3c(NC(=O)c4cnc5cc(OCCN6CCN(C)CC6)ccn45)cccc32)n1 | CTCAE v4.03, refers to: AST increased | platinum-resistant ovarian cancer patients | oral, dose not given, with: pembrolizumab IV every 3 weeks | – | all-cause adverse events | 36.4%
CC(C)C[C@@H]1NC(=O)CNC(=O)[C@H](CC(N)=O)NC(=O)[C@H](CCCNC(=N)N)NC(=O)[C@H]([C@@H](C)O)NC(=O)[C@@H]2CSSC[C@@H]3NC(=O)[C@H]([C@@H](C)O)NC(=O)CNC(=O)CNC(=O)[C@H](C(C)C)NC(=O)[C@@H]4CSSC[C@H](NC(=O)[C@H]([C@@H](C)O)NC(=O)[C@H](CSSC[C@H](NC(=O)[C@H](C(C)C)NC(=O)[C@@H]5CCCN5C1=O)C(=O)N[C@@H](CCCCN)C(=O)N[C@@H](CCC(=O)O)C(=O)N[C@@H]([C@@H](C)O)C(=O)N4)NC(=O)CNC(=O)[C@@H]1CCCN1C(=O)[C@H]([C@@H](C)O)NC(=O)[C@H](CC(N)=O)NC3=O)C(=O)N[C@@H](CO)C(=O)N[C@@H](Cc1c[nH]c3ccccc13)C(=O)N1CCC[C@H]1C(=O)N[C@@H](C(C)C)C(=O)N2 | HPLC | water | 180 µM, 14 days, 37 °C, deamidation stability | – | remaining peptide | 97.2 ± 2.9%
C[C@]1(CO)Cc2ncn(-c3ccc(C#N)c(Cl)c3)c2C(=O)O1 | – | human | concentration not given, European food-effect part | – | drug-related AE incidence | 25%
CN1CCN(c2ccc(Nc3nccc(-c4ccc5ccccc5c4)n3)cc2C(F)(F)F)CC1 | – | zebrafish embryos | 25 µM, 5 d | – | toxicity | 0%
COc1cccc2c1CCCC2CCCN1CCN(C2CCCCC2)CC1 (stereo not drawn) | – | CD-1 mouse, male, lung | intraperitoneal, 0.3 mg/kg | – | Tmax | 15 min
O=C(Nc1ccccc1)C1CCN(C(=O)Oc2cccnc2)CC1 | – | healthy women | oral, 60 mg, 7 days | – | adverse event Nasopharyngitis | 0%
c1ccc2c(c1)c1cccc3ccc4cccc2c4c31 | – | fresh water | 12 (unit not given), 20 °C, S30-1 sampler, 30 µm | – | log K(PDMS-water) | 5.12 ± 0.05

Structure (SMILES) | assay | system | setting | how to read | quantity | result
COc1cc2c(cc1OC)CN(CCc1ccc(NC(=O)c3cccc4c(=O)c5cccc(OC)c5[nH]c34)cc1)CC2 | – | CD-1 mouse, male, lung | intraperitoneal, 1 mg/kg | – | Tmax | 60 min
C[C@@H](NC(=O)N1C(=O)[C@H](Cc2ccnc(N)c2)[C@H]1C(=O)O)C1CCCCC1 | – | healthy adult Chinese volunteers | continuous intravenous infusion, 0.3 mg/kg/h, 5-day infusion, CTCAE 5.0 grading | – | incidence of decreased hemoglobin | 0%
Cc1nonc1Cn1nnc2c(N3CC[C@H](O)C3)nc(C(C)(C)C)nc21 | – | C57BL/6 mice, plasma | intravenous, dose not given | – | dose-normalised AUC(0-inf) | 558 kg·ng·h/mL/mg
CC(=O)c1c(C)c2cnc(Nc3ccc(C4CCN(CCS(C)(=O)=O)CC4)cn3)nc2n(C2CCCC2)c1=O | – | HR+/HER2- advanced breast cancer patients | oral, 50 mg | – | patients with any TEAE | 100%
Nc1nc2cc(-c3ccc4ncc(C(=O)N5CCOCC5)n4c3)ccc2o1 | – | human, advanced solid tumours | 100–300 mg once daily | – | elevated ALT adverse events | 38%
CCN(CCO)CCCC(C)Nc1ccnc2cc(Cl)ccc12 (stereo not drawn) | – | newly diagnosed glioblastoma patients | oral, 200 mg/dose, grade 2, with: radiotherapy and temozolomide | – | neutrophil decrease patients | 66%
CCCCCCCC(=O)N[C@@H](CCCCN)C(=O)N[C@@H](CCCCN)C(=O)N[C@@H](C)C(=O)N[C@@H](CC(C)C)C(=O)N[C@@H](CCCCN)C(=O)N[C@@H](CC(C)C)C(=O)N[C@@H](C)C(=O)N[C@@H](CCCCN)C(=O)N[C@@H](CCCCN)C(=O)N1CCC[C@H]1C(=O)N[C@@H](CC(C)C)C(=O)N[C@@H](CCCCN)C(=O)N[C@@H](CC(C)C)C(=O)N[C@@H](CC(C)C)C(=O)N[C@@H](CCCCN)C(N)=O | – | ICR mouse, female, whole blood | intravenous bolus, 1 mg/kg | – | Tmax | 4.8 min
CC(C)C[C@@H]1NC(=O)CNC(=O)[C@H](CC(N)=O)NC(=O)[C@H](CCCNC(=N)N)NC(=O)[C@H]([C@@H](C)O)NC(=O)[C@@H]2CSSC[C@@H]3NC(=O)[C@H]([C@@H](C)O)NC(=O)CNC(=O)CNC(=O)[C@H](C(C)C)NC(=O)[C@@H]4CSSC[C@H](NC(=O)[C@H]([C@@H](C)O)NC(=O)[C@H](CSSC[C@H](NC(=O)[C@H](C(C)C)NC(=O)[C@@H]5CCCN5C1=O)C(=O)NCC(=O)N[C@@H](CCC(=O)O)C(=O)N[C@@H]([C@@H](C)O)C(=O)N4)NC(=O)CNC(=O)[C@@H]1CCCN1C(=O)[C@H](CCCCN)NC(=O)[C@H](CC(N)=O)NC3=O)C(=O)N[C@@H](CO)C(=O)N[C@@H](Cc1c[nH]c3ccccc13)C(=O)N1CCC[C@H]1C(=O)N[C@@H](C(C)C)C(=O)N2 | HPLC | ammonium bicarbonate | 180 µM, 14 days, pH 9.0, 25 °C, deamidation stability | – | remaining peptide | 91.1 ± 0.6%
C=C(C)[C@@H]1CCC(C)=C[C@H]1c1c(O)cc(CCCCC)cc1O | – | human | 750 mg, trial 17074, with: rifampicin 600 mg | – | subjects with Somnolence | 13%
Clc1ccc(Cl)c(-c2cc(Cl)c(Cl)c(Cl)c2Cl)c1 | – | polyethylene-water partitioning | PCB compilation | baseline: maximum over minimum K | literature range factor | 2
CC[C@H]1[C@@H](O)[C@@H]2[C@H](CC[C@]3(C)[C@@H]([C@H](C)CCNC(=O)NS(=O)(=O)c4ccc(C(C)(C)C)cc4)CC[C@@H]23)[C@@]2(C)CC[C@@H](O)C[C@@H]12 | – | human | concentration not given, study, with: quinidine | – | subjects with TEAEs | 58.3%
CC(C)=CC1C(C(=O)OC(C#N)c2cccc(Oc3ccccc3)c2)C1(C)C (stereo not drawn) | – | pooled human liver cytosol | – | – | CLint | 1350 µL/min/mg
CC[C@H](C)[C@H](NC(=O)[C@H](Cc1ccccc1)NC(=O)[C@H](CCC(=O)O)NC(=O)[C@H](CCCNC(=N)N)NC(=O)[C@H](C)NC(=O)[C@H](C)NC(=O)[C@H](CCC(N)=O)NC(=O)[C@H](CCC(=O)O)NC(=O)[C@H](CCC(=O)O)NC(=O)[C@H](CC(C)C)NC(=O)[C@H](Cc1ccc(O)cc1)NC(=O)[C@H](CO)NC(=O)[C@H](CO)NC(=O)[C@@H](NC(=O)[C@H](CC(=O)O)NC(=O)[C@H](CO)NC(=O)[C@@H](NC(=O)[C@H](Cc1ccccc1)NC(=O)[C@@H](NC(=O)CNC(=O)[C@H](CCC(=O)O)NC(=O)[C@H](C)NC(=O)CCc1cnc[nH]1)[C@@H](C)O)[C@@H](C)O)C(C)C)C(=O)N[C@@H](C)C(=O)N[C@@H](Cc1c[nH]c2ccccc12)C(=O)N[C@@H](CC(C)C)C(=O)N[C@H](C(=O)N[C@@H](CCCNC(=N)N)C(=O)NCC(=O)N[C@@H](CCCNC(=N)N)C(=O)N[C@@H](CCCCNC(=O)COCCOCCNC(=O)COCCOCCNC(=O)CC[C@H](NC(=O)CCCCCCCCCCCCCCCCC(=O)O)C(=O)O)C(=O)NCC(=O)NCC(=O)N[C@@H](CO)C(=O)N[C@@H](CCSC)C(=O)N[C@H](C(=O)N[C@@H](CCCCNc1c(NCCCCCN(O)C(=O)CCC(=O)NCCCCCN(O)C(=O)CCC(=O)NCCCCCN(O)C(C)=O)c(=O)c1=O)C(=O)O)C(C)C)C(C)C [zirconium-89 labelled] | ex vivo gamma counting | male Sprague-Dawley rats, intestine | intravenous, 5 MBq (1 nmol), 24 h | – | tissue uptake | 0.115 %ID/g and 0.105 %ID/g and 0.145 %ID/g
c1ccc2cc3c(cc2c1)-c1cccc2cccc-3c12 | – | fresh water | 12 (unit not given), 20 °C | – | log K(PDMS-water) | 5.22 ± 0.05
CCN1[C@@H](C(=O)NC23CCC(C(=O)O)(CC2)CC3)[C@H](c2cccc(Cl)c2F)[C@]2(C(=O)Nc3cc(Cl)ccc32)C12CCCCC2 | – | patients with advanced solid tumours | oral, dose not given, all doses | – | Headache incidence | 4.8%
CO[C@H]1C[C@@H]2CC[C@@H](C)[C@@](O)(O2)C(=O)C(=O)N2CCCC[C@H]2C(=O)O[C@H]([C@H](C)C[C@@H]2CC[C@@H](OC(=O)NCCOCCOCCOCCOCCOCCOCCOCCOCCC(=O)N3CCc4cc(Cn5nc(-c6ccc7oc(N)nc7c6)c6c(N)ncnc65)ccc4C3)[C@H](OC)C2)C[C@@H](O)[C@H](C)/C=C(\C)[C@@H](O)[C@@H](OC)C(=O)[C@H](C)C[C@H](C)/C=C/C=C/C=C/1C | – | patients with advanced solid tumours | intravenous, 8 mg weekly, grade 3 or higher | – | headache incidence | 0%
CN1CC[C@@H](c2c(O)cc(O)c3c(=O)cc(-c4ccc(C(F)(F)F)cc4Cl)oc23)[C@@H]1CO | refers to: Pyrexia | B-cell malignancies or AML | oral, 100 mg, continuous dosing | – | patients with adverse event | 12.5%
COc1ncccc1-c1cnn2ccc(N3CCN(C(=O)OC(C)C)CC3)nc12 | – | mouse, SNL model, brain | oral, 10 mg/kg, 120 min | – | drug concentration | 11 µM
CC(C)(O)c1cc(Nc2cc(Oc3cn(C4CC4)nc3C3CCOCC3)ccn2)ccn1 | Constipation | advanced cancer patients, grade 4 glioma expansion | oral, 50 mg twice daily, all causality any grade | – | treatment-emergent adverse events | 8%
